Results collected from several papers.
Every numbered part comes from another study and shows a few of its results, in no order.
Sequence of UniProt Q06418 (whole entry, looked up): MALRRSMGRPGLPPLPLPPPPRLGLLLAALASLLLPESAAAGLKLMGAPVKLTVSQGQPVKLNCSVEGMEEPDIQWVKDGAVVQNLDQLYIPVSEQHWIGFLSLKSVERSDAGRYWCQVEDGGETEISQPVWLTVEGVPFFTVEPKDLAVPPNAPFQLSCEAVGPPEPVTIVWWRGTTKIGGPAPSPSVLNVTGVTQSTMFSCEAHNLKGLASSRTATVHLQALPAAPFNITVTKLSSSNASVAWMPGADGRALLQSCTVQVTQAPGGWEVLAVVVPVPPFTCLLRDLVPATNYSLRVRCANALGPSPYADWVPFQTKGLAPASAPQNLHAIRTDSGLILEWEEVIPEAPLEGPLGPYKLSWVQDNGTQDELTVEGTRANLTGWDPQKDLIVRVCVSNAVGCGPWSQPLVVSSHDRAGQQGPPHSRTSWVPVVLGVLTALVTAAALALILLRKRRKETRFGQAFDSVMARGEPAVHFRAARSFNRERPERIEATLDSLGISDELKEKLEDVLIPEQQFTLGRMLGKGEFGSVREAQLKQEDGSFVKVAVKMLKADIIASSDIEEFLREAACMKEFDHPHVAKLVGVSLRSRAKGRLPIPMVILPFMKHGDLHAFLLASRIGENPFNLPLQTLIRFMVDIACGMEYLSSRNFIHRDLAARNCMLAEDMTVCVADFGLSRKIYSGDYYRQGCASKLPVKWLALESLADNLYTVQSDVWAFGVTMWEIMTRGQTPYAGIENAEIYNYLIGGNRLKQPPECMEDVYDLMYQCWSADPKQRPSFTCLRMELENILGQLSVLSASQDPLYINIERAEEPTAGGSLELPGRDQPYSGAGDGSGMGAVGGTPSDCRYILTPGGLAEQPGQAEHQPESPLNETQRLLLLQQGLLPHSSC
Sequence of UniProt P49674 (whole entry, looked up): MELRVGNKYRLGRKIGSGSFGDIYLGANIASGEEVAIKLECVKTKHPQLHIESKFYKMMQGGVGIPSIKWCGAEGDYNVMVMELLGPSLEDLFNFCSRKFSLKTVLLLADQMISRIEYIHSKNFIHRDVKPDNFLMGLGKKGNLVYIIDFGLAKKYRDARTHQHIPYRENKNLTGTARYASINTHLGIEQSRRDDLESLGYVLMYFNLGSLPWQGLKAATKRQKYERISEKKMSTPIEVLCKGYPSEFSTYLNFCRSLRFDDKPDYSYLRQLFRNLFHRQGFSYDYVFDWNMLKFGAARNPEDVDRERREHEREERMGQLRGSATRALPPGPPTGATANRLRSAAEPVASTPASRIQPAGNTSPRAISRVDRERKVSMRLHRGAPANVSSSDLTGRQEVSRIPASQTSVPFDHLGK
Sequence of UniProt P42680 (whole entry, looked up): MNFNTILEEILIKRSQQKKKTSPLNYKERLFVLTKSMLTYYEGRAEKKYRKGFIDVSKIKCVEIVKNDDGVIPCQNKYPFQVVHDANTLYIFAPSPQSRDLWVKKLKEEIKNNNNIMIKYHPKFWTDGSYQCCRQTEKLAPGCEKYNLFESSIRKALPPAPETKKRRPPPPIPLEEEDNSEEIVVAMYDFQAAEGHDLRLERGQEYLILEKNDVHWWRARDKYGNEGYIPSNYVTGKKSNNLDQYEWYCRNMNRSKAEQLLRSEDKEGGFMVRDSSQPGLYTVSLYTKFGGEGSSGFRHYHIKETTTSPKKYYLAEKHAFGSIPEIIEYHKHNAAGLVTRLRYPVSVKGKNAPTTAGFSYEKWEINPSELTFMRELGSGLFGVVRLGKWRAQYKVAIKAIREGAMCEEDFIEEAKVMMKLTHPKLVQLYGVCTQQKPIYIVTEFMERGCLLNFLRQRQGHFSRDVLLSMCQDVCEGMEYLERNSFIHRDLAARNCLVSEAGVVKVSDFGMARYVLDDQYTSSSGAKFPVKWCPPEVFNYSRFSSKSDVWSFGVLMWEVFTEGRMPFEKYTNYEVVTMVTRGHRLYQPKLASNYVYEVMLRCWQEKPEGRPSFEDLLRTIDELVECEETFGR
Sequence of UniProt O94768 (whole entry, looked up): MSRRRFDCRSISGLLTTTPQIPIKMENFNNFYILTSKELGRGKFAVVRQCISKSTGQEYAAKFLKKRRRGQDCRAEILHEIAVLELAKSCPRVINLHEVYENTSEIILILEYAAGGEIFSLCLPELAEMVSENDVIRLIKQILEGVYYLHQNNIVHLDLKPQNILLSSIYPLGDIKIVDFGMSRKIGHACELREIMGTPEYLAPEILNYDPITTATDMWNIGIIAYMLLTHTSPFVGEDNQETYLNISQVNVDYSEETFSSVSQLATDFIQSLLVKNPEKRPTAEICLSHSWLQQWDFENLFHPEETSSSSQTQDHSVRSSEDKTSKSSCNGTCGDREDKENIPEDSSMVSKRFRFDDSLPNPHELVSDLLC
Sequence of UniProt P29317 (whole entry, looked up): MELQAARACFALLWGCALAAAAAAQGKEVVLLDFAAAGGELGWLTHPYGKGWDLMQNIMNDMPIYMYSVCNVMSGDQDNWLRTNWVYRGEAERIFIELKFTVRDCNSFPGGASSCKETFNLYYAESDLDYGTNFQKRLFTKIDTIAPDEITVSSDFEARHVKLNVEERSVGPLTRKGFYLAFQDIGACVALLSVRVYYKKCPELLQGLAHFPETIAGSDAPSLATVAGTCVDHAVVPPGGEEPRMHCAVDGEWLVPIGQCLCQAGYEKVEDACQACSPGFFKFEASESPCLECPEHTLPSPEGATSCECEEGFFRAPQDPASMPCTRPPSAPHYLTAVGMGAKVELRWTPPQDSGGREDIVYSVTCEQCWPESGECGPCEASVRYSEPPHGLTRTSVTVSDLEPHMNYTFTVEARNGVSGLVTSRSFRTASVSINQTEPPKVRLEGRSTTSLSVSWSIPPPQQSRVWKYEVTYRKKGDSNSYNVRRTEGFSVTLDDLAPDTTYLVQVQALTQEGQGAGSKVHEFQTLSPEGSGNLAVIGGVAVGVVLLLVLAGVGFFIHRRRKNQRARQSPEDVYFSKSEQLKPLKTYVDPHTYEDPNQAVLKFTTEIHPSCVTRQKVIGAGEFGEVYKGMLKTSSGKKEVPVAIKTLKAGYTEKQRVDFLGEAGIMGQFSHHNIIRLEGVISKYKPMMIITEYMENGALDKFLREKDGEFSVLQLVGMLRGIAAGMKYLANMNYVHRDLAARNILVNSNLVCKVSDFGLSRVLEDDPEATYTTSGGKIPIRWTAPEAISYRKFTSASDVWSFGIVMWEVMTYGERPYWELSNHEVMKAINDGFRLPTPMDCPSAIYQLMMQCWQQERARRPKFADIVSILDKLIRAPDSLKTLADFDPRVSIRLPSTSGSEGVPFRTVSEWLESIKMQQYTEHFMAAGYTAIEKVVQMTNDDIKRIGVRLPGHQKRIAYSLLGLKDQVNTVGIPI
Sequence of UniProt P47900 (whole entry, looked up): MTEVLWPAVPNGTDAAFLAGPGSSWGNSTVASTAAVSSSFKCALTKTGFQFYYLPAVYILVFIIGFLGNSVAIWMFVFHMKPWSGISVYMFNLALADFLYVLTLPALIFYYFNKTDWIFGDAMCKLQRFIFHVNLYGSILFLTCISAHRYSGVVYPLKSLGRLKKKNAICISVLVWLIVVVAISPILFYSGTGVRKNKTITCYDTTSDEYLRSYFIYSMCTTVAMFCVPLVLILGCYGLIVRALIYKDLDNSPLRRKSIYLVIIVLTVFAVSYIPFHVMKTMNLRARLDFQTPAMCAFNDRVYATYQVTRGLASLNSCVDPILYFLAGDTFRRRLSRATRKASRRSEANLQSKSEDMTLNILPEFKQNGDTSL
Sequence of UniProt P21127 (whole entry, looked up): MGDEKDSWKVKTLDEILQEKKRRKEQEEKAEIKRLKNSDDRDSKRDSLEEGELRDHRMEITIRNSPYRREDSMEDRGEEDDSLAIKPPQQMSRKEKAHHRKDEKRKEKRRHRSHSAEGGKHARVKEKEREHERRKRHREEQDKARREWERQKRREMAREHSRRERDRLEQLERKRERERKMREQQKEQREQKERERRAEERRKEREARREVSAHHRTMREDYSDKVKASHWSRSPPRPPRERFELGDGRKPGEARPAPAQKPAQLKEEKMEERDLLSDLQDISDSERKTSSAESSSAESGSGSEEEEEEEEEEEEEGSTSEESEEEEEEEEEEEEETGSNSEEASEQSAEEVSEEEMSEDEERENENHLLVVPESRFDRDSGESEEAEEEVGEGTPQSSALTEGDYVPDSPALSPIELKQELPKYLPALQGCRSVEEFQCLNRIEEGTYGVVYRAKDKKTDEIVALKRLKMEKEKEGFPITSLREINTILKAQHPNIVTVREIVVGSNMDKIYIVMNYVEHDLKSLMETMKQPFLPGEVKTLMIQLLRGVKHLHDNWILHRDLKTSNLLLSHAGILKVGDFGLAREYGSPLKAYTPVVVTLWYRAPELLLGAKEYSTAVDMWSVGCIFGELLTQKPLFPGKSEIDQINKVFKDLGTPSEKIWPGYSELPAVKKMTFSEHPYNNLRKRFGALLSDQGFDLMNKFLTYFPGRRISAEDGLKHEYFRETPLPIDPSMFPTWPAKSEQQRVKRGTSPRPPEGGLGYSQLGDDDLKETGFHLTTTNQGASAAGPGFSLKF
Sequence of UniProt P0DMS8 (whole entry, looked up): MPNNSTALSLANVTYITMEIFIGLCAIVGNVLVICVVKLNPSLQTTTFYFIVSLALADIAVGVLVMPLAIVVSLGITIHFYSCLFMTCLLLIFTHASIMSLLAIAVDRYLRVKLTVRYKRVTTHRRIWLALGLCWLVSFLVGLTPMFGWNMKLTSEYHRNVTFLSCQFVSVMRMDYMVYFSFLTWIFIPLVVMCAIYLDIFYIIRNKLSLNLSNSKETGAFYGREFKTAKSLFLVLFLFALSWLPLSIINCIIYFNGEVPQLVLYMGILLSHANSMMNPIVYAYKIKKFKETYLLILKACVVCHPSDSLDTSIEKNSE

Series 1
Compound: CN1CCN(c2cnc3c(C4CCN(C(=O)c5ccc(OC(F)(F)F)cc5N)CC4)ncnc3c2)CC1
Technique: competition with immobilised ligand
Tested at: 1 µM
target	observed	remaining binding
Receptor-type tyrosine-protein kinase FLT3 (FLT3, Homo sapiens, UniProt P36888, N841I)	cell-free assay	100%
Tyrosine-protein kinase Tec (TEC, Homo sapiens, UniProt P42680)	binding	100%
Serine/threonine-protein kinase pim-1 (PIM1, Homo sapiens, UniProt P11309)	cell-free assay	90%
Serine/threonine-protein kinase MAK (MAK, Homo sapiens, UniProt P20794)	binding	100%
Serine/threonine-protein kinase 17B (STK17B, Homo sapiens, UniProt O94768)	cell-free assay	86%
Tyrosine-protein kinase receptor TYRO3 (TYRO3, Homo sapiens, UniProt Q06418)	cell-free assay	100%
Receptor-type tyrosine-protein kinase FLT3 (FLT3, Homo sapiens, UniProt P36888, R834Q)	cell-free assay	100%
Serine/threonine-protein kinase 38-like (STK38L, Homo sapiens, UniProt Q9Y2H1)	binding	100%
Focal adhesion kinase 1 (PTK2, Homo sapiens, UniProt Q05397)	cell-free assay	100%
Phosphatidylinositol 4,5-bisphosphate 3-kinase catalytic subunit beta isoform (PIK3CB, Homo sapiens, UniProt P42338)	cell-free assay	100%
Phosphatidylinositol 4-phosphate 5-kinase type-1 alpha (PIP5K1A, Homo sapiens, UniProt Q99755)	cell-free assay	64%
Leucine-rich repeat serine/threonine-protein kinase 2 (LRRK2, Homo sapiens, UniProt Q5S007, G2019S)	cell-free assay	100%
Mitogen-activated protein kinase kinase kinase 5 (MAP3K5, Homo sapiens, UniProt Q99683)	cell-free assay	92%
Ephrin type-B receptor 6 (EPHB6, Homo sapiens, UniProt O15197)	cell-free assay	18%
Cyclin-dependent kinase 11B (CDK11B, Homo sapiens, UniProt P21127)	cell-free assay	82%
Epidermal growth factor receptor (EGFR, Homo sapiens, UniProt P00533, G719C)	cell-free assay	94%
Protein-tyrosine kinase 6 (PTK6, Homo sapiens, UniProt Q13882)	cell-free assay	100%
Proto-oncogene tyrosine-protein kinase receptor Ret (RET, Homo sapiens, UniProt P07949, V804M)	cell-free assay	100%
Phosphatidylinositol 4,5-bisphosphate 3-kinase catalytic subunit alpha isoform (PIK3CA, Homo sapiens, UniProt P42336, E545K)	cell-free assay	100%
Death-associated protein kinase 1 (DAPK1, Homo sapiens, UniProt P53355)	cell-free assay	100%
Bone morphogenetic protein receptor type-1A (BMPR1A, Homo sapiens, UniProt P36894)	binding	79%
Mitogen-activated protein kinase kinase kinase 7 (MAP3K7, Homo sapiens, UniProt O43318)	cell-free assay	100%
Ribosomal protein S6 kinase alpha-5, C-terminal kinase domain (RPS6KA5, Homo sapiens, UniProt O75582)	cell-free assay	96%
Protein-tyrosine kinase 2-beta (PTK2B, Homo sapiens, UniProt Q14289)	cell-free assay	100%
Tyrosine-protein kinase JAK1, JH2 (JAK1, Homo sapiens, UniProt P23458)	cell-free assay	90%

Series 2
Target: Diamine acetyltransferase 1 (Homo sapiens, UniProt P21673)
Action: inhibitor
Tested at: 10 µM
Baseline: control
Construct (P21673 1-171): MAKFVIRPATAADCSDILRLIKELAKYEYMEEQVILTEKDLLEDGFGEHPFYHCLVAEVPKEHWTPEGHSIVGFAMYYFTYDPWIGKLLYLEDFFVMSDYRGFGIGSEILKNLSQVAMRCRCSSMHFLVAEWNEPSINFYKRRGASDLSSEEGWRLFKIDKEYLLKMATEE
SMILES	remaining activity
CC[C@H](CC[C@@H](C)[C@H]1CC[C@H]2[C@@H]3CC=C4C[C@@H](O)CC[C@]4(C)[C@H]3CC[C@]12C)C(C)C	100%
CCCCCCCC(=O)O	85.3%
COc1ccc(-c2coc3cc(O[C@@H]4O[C@H](CO)[C@@H](O)[C@H](O)[C@H]4O)ccc3c2=O)cc1	97.4%
N[C@@H](Cc1cnc[nH]1)C(=O)O	105%
CCCCCCCC/C=C\CCCCCCCCCC(=O)O	102%
O=c1cc(-c2ccc(O)c(O)c2)oc2cc(O[C@@H]3O[C@H](CO)[C@@H](O)[C@H](O)[C@H]3O)cc(O)c12	112%
COc1c(OC)c2occc2c2oc(=O)ccc12	88.7%
O=C(O)/C=C/c1ccccc1O	101%
Nc1[nH]cnc2ncnc1-2	83%
COc1cc(/C=C/c2ccc(O)c(O)c2)cc(OC)c1	107%
O=C(O)CC(=O)O	91%
CC1=CC[C@@H](C(C)(C)O)CC1	112%
OC[C@H]1O[C@H](OC[C@H]2OC(O)[C@H](O)[C@@H](O)[C@@H]2O)[C@H](O)[C@@H](O)[C@@H]1O (some centres unmarked)	104%
CCCCCCCCCCCCCCCCCC=O	92.6%
COc1cc(/C=C/CO)cc(OC)c1O[C@@H]1O[C@H](CO)[C@@H](O)[C@H](O)[C@H]1O	82.5%
O=c1c(-c2ccc(O)cc2)coc2c([C@@H]3O[C@H](CO[C@@H]4OC[C@@H](O)[C@H](O)[C@H]4O)[C@@H](O)[C@H](O)[C@H]3O)c(O)ccc12	84%
COc1c(CC=C(C)C)c(O)cc2oc(=O)c(-c3ccc(O)cc3O)cc12	92.7%

Series 3
Compound: CC(C)CN(C)c1nc(N)c(C(=O)N=C(N)N)nc1Cl
Observed: β-arrestin recruitment
Action: agonist
Technique: PRESTO-Tango
Tested at: 10 µM
Baseline: untreated
target	fold over basal
Endothelin-1 receptor (EDNRA, Homo sapiens, UniProt P25101)	0.83
fMet-Leu-Phe receptor (FPR1, Homo sapiens, UniProt P21462)	0.59 fold
Adhesion G protein-coupled receptor A3 (ADGRA3, Homo sapiens, UniProt Q8IWK6)	1.08
Adhesion G protein-coupled receptor F4 (ADGRF4, Homo sapiens, UniProt Q8IZF3)	0.9
B1 bradykinin receptor (BDKRB1, Homo sapiens, UniProt P46663)	1.03
P2Y purinoceptor 1 (P2RY1, Homo sapiens, UniProt P47900)	0.5
Mas-related G-protein coupled receptor member E (MRGPRE, Homo sapiens, UniProt Q86SM8)	1.14
Adenosine receptor A3 (ADORA3, Homo sapiens, UniProt P0DMS8)	1.03
C5a anaphylatoxin chemotactic receptor 1 (C5AR1, Homo sapiens, UniProt P21730)	0.69
Prokineticin receptor 2 (PROKR2, Homo sapiens, UniProt Q8NFJ6)	0.74
G-protein coupled receptor 3 (GPR3, Homo sapiens, UniProt P46089)	0.95
Type-2 angiotensin II receptor (AGTR2, Homo sapiens, UniProt P50052)	1.28
Proteinase-activated receptor 1 (F2R, Homo sapiens, UniProt P25116)	0.99
Neuromedin-K receptor (TACR3, Homo sapiens, UniProt P29371)	1.02 fold

Series 4
Compound: Cc1cn(-c2cc(NC(=O)c3ccc(C)c(Nc4nccc(-c5cccnc5)n4)c3)cc(C(F)(F)F)c2)cn1
Observed: enzyme activity
Action: inhibitor
Tested at: 0.5 µM
Baseline: control
target	remaining activity [%]
Dual specificity protein kinase CLK2 (CLK2, Homo sapiens, UniProt P49760)	91.4
Protein kinase C theta type (PRKCQ, Homo sapiens, UniProt Q04759)	75.4
Casein kinase I isoform epsilon (CSNK1E, Homo sapiens, UniProt P49674)	101
Dual specificity protein kinase CLK1 (CLK1, Homo sapiens, UniProt P49759)	73.8
Ephrin type-A receptor 6 (EPHA6, Homo sapiens, UniProt Q9UF33)	47
Mitogen-activated protein kinase kinase kinase 20 (MAP3K20, Homo sapiens, UniProt Q9NYL2)	17.8
Serine/threonine-protein kinase PAK 6 (PAK6, Homo sapiens, UniProt Q9NQU5)	107
Ribosomal protein S6 kinase alpha-3 (RPS6KA3, Homo sapiens, UniProt P51812)	104
Cyclin-dependent kinase 2, with cyclin E (CDK2, Homo sapiens, UniProt P24941)	98.9
Tyrosine-protein kinase receptor TYRO3 (TYRO3, Homo sapiens, UniProt Q06418)	96.5
Calcium/calmodulin-dependent protein kinase kinase 1 (CAMKK1, Homo sapiens, UniProt Q8N5S9)	91.1
Vascular endothelial growth factor receptor 1 (FLT1, Homo sapiens, UniProt P17948)	99.2
Calcium/calmodulin-dependent protein kinase type 1 (CAMK1, Homo sapiens, UniProt Q14012)	104
Serine/threonine-protein kinase Sgk2 (SGK2, Homo sapiens, UniProt Q9HBY8)	103
Serine/threonine-protein kinase SIK2 (SIK2, Homo sapiens, UniProt Q9H0K1)	103
Protein kinase C zeta type (PRKCZ, Homo sapiens, UniProt Q05513)	87
Casein kinase I isoform delta (CSNK1D, Homo sapiens, UniProt P48730)	89.3
Serine/threonine-protein kinase PAK 1 (PAK1, Homo sapiens, UniProt Q13153)	117
Ephrin type-A receptor 2 (EPHA2, Homo sapiens, UniProt P29317)	10.8
Insulin-like growth factor 1 receptor (IGF1R, Homo sapiens, UniProt P08069)	88.4
Muscle, skeletal receptor tyrosine-protein kinase (MUSK, Homo sapiens, UniProt O15146)	91.1

For quick reference, copied from above (series 4):
target	remaining activity [%]
Protein kinase C theta type (PRKCQ, Homo sapiens, UniProt Q04759)	75.4
Dual specificity protein kinase CLK1 (CLK1, Homo sapiens, UniProt P49759)	73.8
Ephrin type-A receptor 6 (EPHA6, Homo sapiens, UniProt Q9UF33)	47
Serine/threonine-protein kinase PAK 1 (PAK1, Homo sapiens, UniProt Q13153)	117
Serine/threonine-protein kinase Sgk2 (SGK2, Homo sapiens, UniProt Q9HBY8)	103
